Measured values from different studies.
Parts stem from different laboratories: compare values within a part only.
Sequence of UniProt P00519 (whole entry, looked up): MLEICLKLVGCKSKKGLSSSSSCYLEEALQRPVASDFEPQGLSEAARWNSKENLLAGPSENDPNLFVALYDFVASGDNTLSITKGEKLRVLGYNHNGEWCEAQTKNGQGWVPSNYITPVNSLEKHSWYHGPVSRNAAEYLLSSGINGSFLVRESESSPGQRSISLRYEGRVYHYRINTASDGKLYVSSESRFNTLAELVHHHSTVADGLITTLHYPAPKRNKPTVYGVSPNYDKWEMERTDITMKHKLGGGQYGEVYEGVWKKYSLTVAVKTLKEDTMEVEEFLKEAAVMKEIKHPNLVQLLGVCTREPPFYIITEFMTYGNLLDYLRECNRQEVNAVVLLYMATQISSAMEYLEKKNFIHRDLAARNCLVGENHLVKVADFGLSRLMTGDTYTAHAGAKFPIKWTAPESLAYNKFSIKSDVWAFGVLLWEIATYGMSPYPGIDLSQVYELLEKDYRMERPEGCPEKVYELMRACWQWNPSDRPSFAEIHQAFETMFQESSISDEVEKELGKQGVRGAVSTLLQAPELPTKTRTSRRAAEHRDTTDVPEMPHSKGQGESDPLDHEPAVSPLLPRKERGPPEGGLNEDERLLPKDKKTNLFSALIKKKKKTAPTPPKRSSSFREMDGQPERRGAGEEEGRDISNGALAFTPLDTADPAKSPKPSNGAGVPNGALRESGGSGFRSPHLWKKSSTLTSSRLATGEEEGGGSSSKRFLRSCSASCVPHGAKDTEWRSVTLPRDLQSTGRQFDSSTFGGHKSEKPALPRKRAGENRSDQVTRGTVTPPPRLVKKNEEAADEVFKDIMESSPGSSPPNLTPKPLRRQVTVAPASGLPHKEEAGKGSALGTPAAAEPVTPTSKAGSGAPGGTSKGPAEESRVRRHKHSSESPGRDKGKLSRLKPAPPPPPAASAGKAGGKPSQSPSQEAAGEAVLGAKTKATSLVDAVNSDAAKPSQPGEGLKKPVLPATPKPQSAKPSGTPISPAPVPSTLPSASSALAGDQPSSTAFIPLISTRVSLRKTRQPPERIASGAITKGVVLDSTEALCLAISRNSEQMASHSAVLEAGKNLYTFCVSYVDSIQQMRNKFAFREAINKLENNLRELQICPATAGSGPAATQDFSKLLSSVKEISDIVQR
Sequence of UniProt P12814 (whole entry, looked up): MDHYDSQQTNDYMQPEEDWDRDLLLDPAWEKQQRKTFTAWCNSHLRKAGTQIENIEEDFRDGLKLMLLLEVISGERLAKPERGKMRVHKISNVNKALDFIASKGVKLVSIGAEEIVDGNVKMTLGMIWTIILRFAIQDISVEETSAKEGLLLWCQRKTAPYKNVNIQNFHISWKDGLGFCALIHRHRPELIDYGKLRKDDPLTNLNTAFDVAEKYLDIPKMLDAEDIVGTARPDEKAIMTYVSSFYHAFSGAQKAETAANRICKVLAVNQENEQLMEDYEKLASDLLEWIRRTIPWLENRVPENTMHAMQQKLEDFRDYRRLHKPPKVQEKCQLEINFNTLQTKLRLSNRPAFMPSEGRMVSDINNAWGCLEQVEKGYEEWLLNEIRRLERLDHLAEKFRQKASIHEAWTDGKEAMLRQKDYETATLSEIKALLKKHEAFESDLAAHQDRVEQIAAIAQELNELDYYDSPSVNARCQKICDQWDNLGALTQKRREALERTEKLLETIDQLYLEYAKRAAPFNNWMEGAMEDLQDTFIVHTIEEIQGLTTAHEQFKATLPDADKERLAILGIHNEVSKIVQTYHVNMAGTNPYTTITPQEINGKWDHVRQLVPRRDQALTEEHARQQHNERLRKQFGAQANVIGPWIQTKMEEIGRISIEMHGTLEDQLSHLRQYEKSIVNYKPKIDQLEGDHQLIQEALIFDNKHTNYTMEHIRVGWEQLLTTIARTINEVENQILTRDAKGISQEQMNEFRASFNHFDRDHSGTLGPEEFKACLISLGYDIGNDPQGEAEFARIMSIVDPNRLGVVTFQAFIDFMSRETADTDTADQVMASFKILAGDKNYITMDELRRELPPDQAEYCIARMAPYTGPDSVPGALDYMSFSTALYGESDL

Block 1 — cell line: normal-adjacent organoid sample F; method: CellTiter-Glo; tested at: 1 µM; notes: replicate mean; reference: DMSO
SMILES | viability
Cc1ccc2nc(CNCCCOc3ccccc3)cc(O)c2c1 | 121%
O=C(NCCN1CCOCC1)c1ccc2c(c1)C(=O)c1ccc(Nc3ccc(F)c(NC(=O)c4ccccc4)c3)cc1CC2 | 74.7%
CCOCCn1cc(C(=O)Nc2ccc(-n3nc(-c4cccnc4)cc3C(F)(F)F)cn2)ccc1=O | 99.4%
Cc1c(NC(=O)c2ccc(C(C)(C)C)cc2)cccc1-c1cn(C)c(=O)c(Nc2ccc(C(=O)N3CCOCC3)cc2)n1 | 149%
Cc1c(N2CCCC2)nc2ccc(Br)cc2c1C(=O)NC[C@H](CCC(=O)O)c1ccccc1Cl | 123%
C[C@H](NC(=O)Nc1cc2[nH]ncc2c(CO)n1)c1ccccn1 | 97.7%
CN(C(=O)c1ccccc1)c1cc(N(C)c2ccc3c(c2)CCc2ccc(C(=O)NCCN4CCOCC4)cc2C3=O)ccc1F | 127%
O=C(NC[C@@H]1[C@H]2CN(C(=O)OCc3cc(C(F)(F)F)cc(C(F)(F)F)c3)C[C@@H]12)c1ccc2[nH]nnc2c1 | 97.1%
CN1CCN(C(=O)C(C)(C)c2ccc(C(=O)Nc3cn4cc(-c5ccncc5)ccc4n3)cc2)CC1 | 73.1%
O=C(Nc1cnc(Oc2ccc(F)cc2)nc1)N1CCc2ncccc2[C@@H]1c1ccc(F)cc1 | 108%
Cc1ccccc1Oc1cc(-n2c(=O)cc(C(F)(F)F)[nH]c2=O)c2ccccc2c1Cl | 132%
CC(=O)C1=C(C)N(c2cccc(C(F)(F)F)c2)C(=O)N[C@H]1c1ccc(C#N)nc1 | 103%

Block 2 — read-out: enzyme activity; mode: inhibitor; tested at: 0.5 µM; reference: control
Target: Serine/threonine-protein kinase TAO3 (TAOK3, Homo sapiens, UniProt Q9H2K8)
Construct (Q9H2K8 1-898): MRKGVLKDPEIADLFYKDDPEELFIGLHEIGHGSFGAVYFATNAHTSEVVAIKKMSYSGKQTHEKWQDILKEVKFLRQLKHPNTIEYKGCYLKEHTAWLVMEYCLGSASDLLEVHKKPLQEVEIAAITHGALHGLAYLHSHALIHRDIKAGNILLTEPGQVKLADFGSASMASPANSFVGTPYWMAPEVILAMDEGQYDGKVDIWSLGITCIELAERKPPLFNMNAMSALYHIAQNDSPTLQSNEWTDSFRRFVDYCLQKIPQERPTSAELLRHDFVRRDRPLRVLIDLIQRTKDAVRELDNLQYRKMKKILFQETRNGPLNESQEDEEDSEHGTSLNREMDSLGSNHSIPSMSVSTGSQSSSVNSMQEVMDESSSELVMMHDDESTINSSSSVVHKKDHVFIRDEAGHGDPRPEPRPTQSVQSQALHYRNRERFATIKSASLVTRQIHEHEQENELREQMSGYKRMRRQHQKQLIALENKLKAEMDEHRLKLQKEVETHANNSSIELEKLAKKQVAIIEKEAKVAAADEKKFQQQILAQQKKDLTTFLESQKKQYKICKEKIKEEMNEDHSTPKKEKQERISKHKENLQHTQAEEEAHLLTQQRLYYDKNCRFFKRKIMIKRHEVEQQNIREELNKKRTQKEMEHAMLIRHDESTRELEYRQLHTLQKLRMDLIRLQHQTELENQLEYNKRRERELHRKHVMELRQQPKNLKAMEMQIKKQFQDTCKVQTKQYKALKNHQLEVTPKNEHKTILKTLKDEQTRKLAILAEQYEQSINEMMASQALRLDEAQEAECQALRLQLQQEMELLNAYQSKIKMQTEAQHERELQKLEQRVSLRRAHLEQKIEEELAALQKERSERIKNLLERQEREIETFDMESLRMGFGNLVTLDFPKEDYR
SMILES | remaining activity [%]
O=c1c(-c2ccc(F)cc2)c(-c2ccncc2)[nH]n1-c1ccc(Cl)cc1 | 89.5
CCN(CC)CCCCN1c2ccccc2Oc2ccc(Cl)cc21 | 110
CCCCc1c(-c2ccc(O)cc2)[nH]c2nccnc12 | 82.5
CNc1cc2c(Nc3cccc(Br)c3)ncnc2cn1 | 94
N#C/C(=C(/N)SC1C=CC=CC1)c1cccc(C(O)c2ccncc2)c1 (stereo not drawn) | 93.8
O=Nc1c(-c2c(O)[nH]c3ccccc23)[nH]c2ccccc12 | 62.6
C[C@@H](N)[C@H]1CC[C@H](C(=O)Nc2ccncc2)CC1 | 92.1
CC(C)(C)c1nc2c3cc[nH]c(=O)c3c3cc(F)ccc3c2[nH]1 | 50.3

Block 3 — SMILES: NCc1ccc(Nc2ncc(F)c(Nc3ccccc3)n2)cc1
target | assay | system | IC50 [µM]
ABL1 (Homo sapiens, UniProt P00519) | – | – | > 10
Trypanosoma brucei kinase Tb427tmp.160.1200 | binding, kinobead competition | Trypanosoma brucei lysate | > 10
Trypanosoma brucei protein Tb427tmp.211.1690 | binding, kinobead competition | Trypanosoma brucei lysate | > 10
Alpha-actinin-1 (Homo sapiens, UniProt P12814) | – | – | > 10
Trypanosoma brucei kinase Tb427tmp.01.0930 | binding, kinobead competition | Trypanosoma brucei lysate | > 10
Trypanosoma brucei CAMKK Tb427tmp.02.4860 | binding, kinobead competition | Trypanosoma brucei lysate | > 10

Block 4
Compound: CC(C)n1cnc(-c2ccc(F)cc2)c1-c1ncc(C(=O)Nc2ccc(N3CCN(C)CC3)cc2)[nH]1
assay | system | conditions | patients with pulmonary embolism [%]
– | human, idiopathic pulmonary fibrosis | 60 mg once daily, trial, treatment-emergent | 0
phase 2a trial | idiopathic pulmonary fibrosis patients | 60 mg once daily, grade 1 emergent event | 0
phase 2a trial | idiopathic pulmonary fibrosis patients | 30 mg once daily, grade 5 emergent event | 0
phase 2a trial | idiopathic pulmonary fibrosis patients | all arms, grade 3 emergent event | 0
phase 2a trial | idiopathic pulmonary fibrosis patients | 30 mg once daily, grade 2 emergent event | 0
phase 2a trial | idiopathic pulmonary fibrosis patients | all arms, grade 4 emergent event | 0
phase 2a trial | idiopathic pulmonary fibrosis patients | 30 mg once daily, grade 4 emergent event | 0

For quick reference, copied from above (block 3):
target | assay | system | IC50 [µM]
Trypanosoma brucei kinase Tb427tmp.01.0930 | binding, kinobead competition | Trypanosoma brucei lysate | > 10
Trypanosoma brucei CAMKK Tb427tmp.02.4860 | binding, kinobead competition | Trypanosoma brucei lysate | > 10
ABL1 (Homo sapiens, UniProt P00519) | – | – | > 10
Trypanosoma brucei kinase Tb427tmp.160.1200 | binding, kinobead competition | Trypanosoma brucei lysate | > 10
